Published values of several laboratories.
Protocols differ between the studies behind these lines. Numbers after ± are the reported error.
EGFR: Epidermal growth factor receptor (EGFR, Homo sapiens, UniProt P00533)

With CC(C)Cc1ccc(-c2nn(-c3ccc(S(C)(=O)=O)cc3)cc2/C=N/N=c2\[nH]c(-c3ccc([N+](=O)[O-])cc3)cs2)cc1 the IC50 was 388 ± 17 nM (EGFR; kinase activity, inhibitor).
With C=CC(=O)Nc1cccc(Sc2nc(Nc3ccc(N4CCN(C)CC4)cc3)ncc2Cl)c1 the IC50 was 512 nM (Epidermal growth factor receptor, with GRB2 (EGFR, Homo sapiens, UniProt P00533); EGFR-GRB2 interaction, NanoBiT; cells expressing EGFR wild type; 1 h, added: EGF 300 ng/mL).
With COC(=O)/C=C/c1ccc2ncnc(Nc3cccc(C(F)(F)F)c3)c2c1 the IC50 was 19.1 nM (EGFR; enzyme activity, inhibitor).
For C=CC(=O)Nc1cc(Nc2nccc(Nc3cc(Cl)c(F)cc3C(C)(C)O)n2)c(OC)cc1N1CC[C@@H](N(C)C)C1, the IC50 was 349 nM (EGFR; EGFR phosphorylation, HTRF; HaCaT^WT cells; 2 h, added: EGF).
For CC(C)(C)n1nc(-c2cnc3cc(OC4CC4)ccc3c2)c(C(N)=O)c1N, the IC50 was 1030 nM (EGFR).
With OCc1ccc(Nc2ccc3ncnc(Nc4cccc(C(F)(F)F)c4)c3c2)cc1 the IC50 was 8.71 nM (EGFR; enzyme activity, inhibitor).
C=CC(=O)Nc1cc(Nc2ncc(C(=O)OC(C)C)c(-c3cn(C)c4ccccc34)n2)c(OC)cc1N(C)CCN(C)C has an IC50 of 68 nM (EGFR; EGFR phosphorylation, HTRF; H2073^WT cells; 2 h, added: EGF).
COc1ccc(-c2nn(-c3ccc(S(C)(=O)=O)cc3)cc2/C=N/N=c2\[nH]c(-c3ccc(Br)cc3)cs2)cc1 has an IC50 of 43 ± 2 nM (EGFR; kinase activity, inhibitor).

Repeated from above:
C=CC(=O)Nc1cc(Nc2ncc(C(=O)OC(C)C)c(-c3cn(C)c4ccccc34)n2)c(OC)cc1N(C)CCN(C)C has an IC50 of 68 nM (EGFR; EGFR phosphorylation, HTRF; H2073^WT cells; 2 h, added: EGF).
